Measured values collected from several papers.
Protocols differ between the studies behind these lines. Numbers after ± are the reported error.
Complement C3 C3b fragment: Complement C3, C3b fragment (Homo sapiens, UniProt P01024)
Histone chaperone ASF1A: Histone chaperone ASF1A (Homo sapiens, UniProt Q9Y294)
lecA: PA-I galactophilic lectin (lecA, Pseudomonas aeruginosa, UniProt Q05097)

Compound | target | test | test system | conditions | how to read | quantity | result
CCCCCCCC/C=C\CCCCCCCC(=O)NC(CO)CO | Glucose-dependent insulinotropic receptor (GPR119, Homo sapiens, UniProt Q8TDV5) | agonist | HEK293 stably transfected with GPR119 | concentration not given | baseline: untransfected cells | cAMP level | increased
COc1ccc(C(=O)/C=C/c2ccc(O)cc2)c(O)c1CC=C(C)C | Amine oxidase [flavin-containing] B (Maob, Rattus norvegicus, UniProt P19643) | inhibitor |  | concentration not given, with: benzylamine | baseline: cynaroside | MAO-B inhibitory potency | ~150 fold
CC[C@H](C)[C@@H]1NC(=O)[C@H](CC(N)=O)NC(=O)[C@H](Cc2ccc(O)cc2)NC(=O)[C@H](Cc2c[nH]c3ccccc23)NC(=O)[C@H](C)NC(=O)[C@@H](N)CSSC[C@@H]2NC(=O)[C@@H](CSC[C@@H](C(=O)N[C@H]3C(=O)N[C@@H](CC(C)C)C(=O)N[C@H]4C(=O)N[C@@H](C(C)C)C(=O)N[C@@H](CCC(=O)O)C(=O)N[C@@H](CS[C@H]3C)C(=O)N[C@@H](CCSC)C(=O)N3CCC[C@H]3C(=O)N[C@@H](CO)C(=O)N[C@H](C(=O)N[C@@H](CC(N)=O)C(=O)O)CS[C@H]4C)NC(=O)[C@H](Cc3ccc(O)cc3)NC(=O)[C@H](C)NC(=O)CNC(=O)[C@H](CCCCN)NC(=O)[C@H](CC(N)=O)NC(=O)CNC(=O)[C@H](CC(C)C)NC(=O)[C@H](CCCNC(=N)N)NC2=O)NC1=O | PBP1b | transglycosylation |  | 8 µM |  | lipid II level fully inhibited | 4 µM
COC(=O)/C(C#N)=C/c1c(-c2ccc(C)cc2)c2c(N)ncnc2n1CCCO | Ribosomal protein S6 kinase alpha-3, C-terminal kinase domain (Rps6ka3, Mus musculus, UniProt P18654) | kinetic trap, LC-MS |  | 10 µM, with: 100 µM FMK trap |  | dissociation half-life | 42 min
O=C(c1ccc(SCCF)cc1)C1CCN(C2Cc3ccccc3CC2O)CC1 (single isomer, unassigned; (-)) | Sigma non-opioid intracellular receptor 1 (SIGMAR1, Cavia porcellus, UniProt Q60492) | radioligand competition |  | with: (+)-[3H]pentazocine | baseline: Ki sigma-1 over Ki VAChT | selectivity ratio | 13.4
CC[C@H](C)[C@H](NC(C)=O)C(=O)N[C@H]1CSSC[C@@H](C(=O)N[C@@H](CC(C)C)C(N)=O)NC(=O)[C@H](CCCNC(=N)N)NC(=O)[C@H](Cc2c[nH]cn2)NC(=O)[C@H](C)NC(=O)CN(C)C(=O)[C@H](Cc2c[nH]c3ccccc23)NC(=O)[C@H](CC(=O)O)NC(=O)[C@H](CCC(N)=O)NC(=O)[C@H](Cc2cn(C)c3ccccc23)NC(=O)[C@H](C(C)C)NC1=O | Complement C3 C3b fragment | SPR |  | 25 °C | baseline: [Trp(Me)4]-Ac-compstatin | relative dissociation rate constant | 1.9
CC[C@H](C)[C@H](NC(=O)[C@H](CCCNC(=N)N)NC(=O)[C@H](CCCNC(=N)N)NC(=O)[C@H](C)NC(=O)[C@H](CC(C)C)NC(=O)[C@H](CCCNC(=N)N)NC(=O)[C@H](C)NC(=O)[C@H](Cc1c[nH]c2ccccc12)NC(=O)[C@H](CCCCN)NC(=O)[C@H](CCC(=O)O)NC(=O)[C@H](CCC(=O)O)NC(=O)[C@@H](NC(=O)[C@H](CO)NC(=O)[C@H](C)NC(C)=O)[C@@H](C)O)C(=O)N[C@@H](C)C(=O)NCC(N)=O | Histone chaperone ASF1A | isothermal titration calorimetry |  | pH 7.5, 20 °C |  | -TΔS | 2.9 ± 0.4 kcal/mol
CN[C@H](C)C(=O)NCC(=O)N[C@@H](Cc1ccc(O)cc1)C(=O)N[C@H]1CCCCNC(=O)C[C@@H](C(=O)N[C@@H](Cc2cccc3ccccc23)C(=O)N[C@@H](Cc2cccc3ccccc23)C(=O)N[C@H](CCC(=O)O)C(=O)O)NC(=O)[C@H](Cc2ccc(O)cc2)NC(=O)[C@H]([C@@H](C)O)NC(=O)[C@@H]2CCCN2C(=O)[C@H](CC(N)=O)NC1=O | Amyloid-beta A4 precursor protein-binding family A member 2, PTB-ARM region (APBA2, Homo sapiens, UniProt Q99767) | ITC |  | concentration not given | baseline: APP wild-type peptide | binding affinity | 46 fold
COC(=O)CCSc1nc2n(n1)C(c1cccc(OC)c1)C(C(=O)Nc1cncc(C)c1)=C(C)N2 (stereo not drawn) | Serine/threonine-protein kinase mTOR (MTOR, Homo sapiens, UniProt P42345) | enzyme activity, inhibitor, TR-FRET |  | 0.3 µM |  | inhibition | 87.9%
O=C(c1cc2c(s1)CCCCC2)N1CCC(n2c(=O)[nH]c3ccccc32)CC1 | Short transient receptor potential channel 6 (Trpc6, Mus musculus, UniProt Q61143, N701Q) | ion current, agonist, whole-cell patch clamp |  | 100 µM, N701Q mutant |  | maximal current density | 0.86 ± 0.59 pA/pF
CCCCCCOc1ccc(C(=O)OCC[N+]2(C)CC=CCC2)cc1 (stereo not drawn) | muscarinic receptors M1 M3 M4 M5, human | [3H]NMS binding |  |  |  | dissociation half-time | 4 to 5 h
CC[C@H](C)[C@H](NC(=O)[C@H](CCCNC(=N)N)NC(=O)[C@H](CCCCN)NC(=O)[C@@H](NC(=O)[C@H](C)NC(=O)[C@H](CCCNC(=N)N)NC(=O)[C@H](CCC(N)=O)NC(=O)[C@H](CO)NC(=O)[C@H](CCCCN)NC(=O)[C@H](CC(N)=O)NC(=O)[C@@H](N)CCCNC(=N)N)[C@@H](C)O)C(=O)N[C@@H](CO)C(=O)N[C@@H](Cc1c[nH]cn1)C(=O)N[C@@H](CCSC)C(=O)N1CCC[C@H]1C(=O)N[C@@H](CO)C(=O)N[C@@H](CCCNC(=N)N)C(=O)N1CCC[C@H]1C(=O)N[C@@H](CCC(=O)O)C(=O)N[C@@H](CC(C)C)C(=O)N[C@@H](CO)C(=O)N[C@@H](C)C(=O)N[C@H](C(=O)N[C@@H](C)C(=O)N[C@H](C(=O)N[C@@H](CC(=O)O)C(=O)N[C@@H](CC(C)C)C(=O)N[C@@H](CCCNC(=N)N)C(=O)N[C@@H](CCCCN)C(=O)N[C@@H](CC(=O)O)C(=O)N[C@@H](CCCCN)C(=O)N[C@@H](C)C(=O)N[C@@H](CCCCN)C(=O)N[C@@H](COP(=O)(O)O)C(=O)N[C@@H](CS)C(=O)OC)[C@@H](C)O)C(C)C | 14-3-3 protein zeta/delta (YWHAZ, Homo sapiens, UniProt P63104) | binding, stopped-flow fluorescence polarization |  |  |  | kon | 2.96e+07 M⁻¹ s⁻¹
OC[C@H]1O[C@@H](OCc2cn([C@@H]3O[C@H](CO)[C@@H](n4cc(CCCCc5cn([C@H]6[C@H](O)[C@@H](O)[C@H](n7cc(CO[C@@H]8O[C@H](CO)[C@H](O)[C@H](O)[C@H]8O)nn7)O[C@@H]6CO)nn5)nn4)[C@H](O)[C@H]3O)nn2)[C@H](O)[C@@H](O)[C@H]1O | lecA | isothermal titration calorimetry |  | concentration not given, 25 °C |  | binding stoichiometry | 0.58 ± 0.06
CC[C@H](C)[C@H](NC(C)=O)C(=O)N[C@H]1CSSC[C@@H](C(=O)N[C@H](C(N)=O)[C@@H](C)O)NC(=O)[C@H](CCCNC(=N)N)NC(=O)[C@H](Cc2c[nH]cn2)NC(=O)[C@@H]2CCCN2C(=O)CNC(=O)[C@H](Cc2c[nH]c3ccccc23)NC(=O)[C@H](CC(=O)O)NC(=O)[C@H](CCC(N)=O)NC(=O)[C@H](Cc2cn(C)c3ccccc23)NC(=O)[C@H](C(C)C)NC1=O | Complement C3 C3b fragment | SPR |  | pH 7.4, 25 °C |  | kon | 750000 ± 80000 M⁻¹ s⁻¹
COc1cc(C2CC(=O)Nc3nc(N)[nH]c(=O)c32)ccc1O (stereo not drawn) | uncharacterized protein (Leishmania donovani, UniProt A0A3Q8IA09) | Tyr fluorescence thermal shift |  | 100 µM | baseline: enzyme alone | Tm shift | ~15 °C
O=C1Nc2ccc(Cl)cc2/C1=N/N=C/c1cccc(OCc2ccccc2)c1 | Amine oxidase [flavin-containing] A (MAOA, Homo sapiens, UniProt P21397) | enzyme activity, inhibitor |  | 10 µM |  | remaining activity | 73.9%
C=C1C(=O)O[C@@H]2[C@H]3C(CO)=CC(=O)C3=C(C)C[C@H](O)[C@@H]12 | Alpha-glucosidase MAL12 (MAL12, Saccharomyces cerevisiae S288c, UniProt P53341) | fluorescence quenching |  | 298 K |  | Stern-Volmer constant | 6630 L/mol
Cc1nc(N=Nc2ccc(S(=O)(=O)O)cc2S(=O)(=O)O)c(COP(=O)(O)O)c(C=O)c1O | Nucleoside triphosphate diphosphohydrolase 3 (Rattus norvegicus, UniProt A6I415) | capillary electrophoresis |  |  | baseline: NTPDase1 and NTPDase2 over NTPDase3 | Ki selectivity ratio | 15 fold
CC[C@H](C)[C@H](NC(=O)[C@H](CCCNC(=N)N)NC(=O)NC[C@H](CCC(N)=O)NC(=O)NC[C@H](CCc1ccccc1)NC(=O)NC[C@H](CCCNC(=N)N)NC(=O)NC[C@H](Cc1ccc2ccccc2c1)NC(=O)[C@H](CCCCN)NC(=O)[C@H](CCC(=O)O)NC(C)=O)C(=O)N[C@@H](C)C(N)=O | Histone chaperone ASF1A | isothermal titration calorimetry |  | pH 7.5, 20 °C |  | -TΔS | -4.4 ± 0.4 kcal/mol
CC[C@H](C)[C@@H]1NC(=O)[C@H](Cc2ccc(O)cc2)NC(=O)[C@@H](N)Cn2cc(nn2)CCCC[C@@H](C(=O)N2CCC[C@H]2C(=O)N[C@@H](CC(C)C)C(=O)NCC(N)=O)NC(=O)[C@H](CC(N)=O)NC(=O)[C@H](CCC(N)=O)NC1=O | Oxytocin receptor (OXTR, Homo sapiens, UniProt P30559) | inositol phosphate, agonist | HEK293 |  |  | Emax | 32.6%
C#Cc1ccc(O[C@@H]2O[C@H](CO)[C@H](O)[C@H](O)[C@H]2O)cc1 | lecA | ITC |  | concentration not given, 5% DMSO |  | binding stoichiometry | 0.95 ± 0.01
Cc1ccc(OCC(=O)N[C@@H](Cc2cn(CCNC(=O)c3ccc(S[C@@H]4O[C@H](CO)[C@H](O)[C@H](O)[C@H]4O)cc3)nn2)C(=O)NCCO)cc1 | lecA | binding, isothermal titration calorimetry |  | 25 °C |  | −TΔS | 3.73 ± 0.143 kcal/mol
O=C(CCl)N(CCNC(=O)C(F)(F)F)c1ccc([N+](=O)[O-])cc1 | Glutathione S-transferase omega-1 (GSTO1, Homo sapiens, UniProt P78417) | covalent inhibitor, LC-MS/MS |  | 10 µM, enzyme 50 µM | baseline: total labelling | labelling at non-active-site cysteines | 0 to 0.6%
O=C(c1ccc(O)cc1)C1(O)Oc2cc(O)cc(O)c2C1=O (stereo not drawn) | laccase (Trametes versicolor) | substrate |  |  |  | Vmax | 1.86 ± 0.3 µmol/min/mg
CNc1ccccc1C(=O)O[C@H]1C[C@H](n2cnc3c(N)ncnc32)O[C@@H]1COP(=O)(O)OP(=O)(O)O | Unconventional myosin-Va (Gallus gallus, UniProt Q02440, D297C/G292C/I296C/S293C/V295G) | stopped-flow FRET |  | 25 °C, with: EDTA 4 mM |  | dissociation rate constant | 108.9 ± 0.8 s⁻¹
CC(=O)Nc1ncc(S(N)(=O)=O)s1 | cah (Neisseria gonorrhoeae, UniProt Q50940) | CO2 hydration |  |  | baseline: compound over acetazolamide | Ki ratio | 8.5 fold
CC[C@H](C)[C@H](NC(=O)[C@@H](NC(=O)[C@H](CS)NC(=O)[C@H](CCSC)NC(C)=O)[C@@H](C)O)C(=O)N[C@@H](CC(=O)O)C(=O)N[C@@H](Cc1ccc(F)cc1)C(=O)N[C@@H](CC(=O)O)C(=O)N[C@@H](CCC(=O)O)C(=O)N[C@@H](Cc1ccc(O)cc1)C(=O)N[C@@H](CCCNC(=N)N)C(=O)N[C@@H](Cc1ccc(F)cc1)C(=O)N[C@@H](CCCNC(=N)N)C(=O)N[C@@H](CCCCN)C(=O)N[C@H](C(N)=O)[C@@H](C)O | human BRCA1 BRCT N1774A | fluorescence polarization |  | concentration not given, FAM-labelled compound | baseline: wild-type BRCA1 BRCT, higher = weaker binding | binding affinity fold reduction | 26 fold
CC(=O)N[C@@H](CO)C(=O)N[C@@H](CC(C)C)C(=O)N[C@@H](CCC(=O)O)C(=O)N[C@@H](CCC(=O)O)C(=O)N1CCC[C@H]1C(=O)N[C@@H](Cc1c[nH]cn1)C(=O)N[C@@H](COP(=O)(O)O)C(=O)N1CCC[C@H]1C(=O)N[C@@H](CCC(=O)O)C(=O)N[C@H](C(=O)NCC(=O)N[C@@H](CCC(=O)O)C(=O)N[C@@H](CCCCN)C(=O)N[C@H](C(=O)N[C@H](C(=O)N[C@@H](C)C(=O)NCC(=O)N[C@@H](CCC(=O)O)C(=O)N[C@H](C(=O)N[C@@H](CC(N)=O)C(N)=O)C(C)C)C(C)C)C(C)C)[C@@H](C)O | Kelch-like ECH-associated protein 1, Kelch domain (KEAP1, Homo sapiens, UniProt Q14145) | isothermal titration calorimetry | Kelch domain | pH 7, 298.15 K |  | TΔS | -2.88 kcal/mol
O=C(COCCCc1ccccc1)N[C@@H](Cc1cn(CCNC(=O)c2ccc(S[C@@H]3O[C@H](CO)[C@H](O)[C@H](O)[C@H]3O)cc2)nn1)C(=O)NCCO | lecA | binding, isothermal titration calorimetry |  | 25 °C |  | −TΔS | 3.56 ± 0.191 kcal/mol
Cc1ccc(C(=O)Nc2ccc(CP(=O)(O)O)cc2CP(=O)(O)O)cc1NC(=O)c1cccc(NC(=O)Nc2cccc(C(=O)Nc3cc(C(=O)Nc4ccc(CP(=O)(O)O)cc4CP(=O)(O)O)ccc3C)c2)c1 | Coagulation factor XI (F11, Homo sapiens, UniProt P03951) | enzyme activity, inhibitor |  | 25 µM, with: S-2366 substrate |  | Km | 410 ± 40 µM
